Results from different studies.
Each line is one published result; not all experiments were run side by side. Values joined by “and” are separate records of one study, mostly repeats; a detail may differ.

With `C[C@@H]1COCCN1c1cc(C2([S@](C)(=N)=O)CC2)nc(-c2cc[nH]c3nccc2-3)n1` the synergistic concentration was no less than 0.3 µM (LoVo; cell growth, MTS; 72 h, added: carboplatin 10 µM).
Under “log2 fold change”, `Cn1cc(-c2ccc(-c3cncc(Cl)c3N3CCC4(CCNC4=O)CC3)cc2)cn1` is recorded as 5.68 (COLO 205; gene expression, microarray, measured: GTF2IRD2 mRNA; concentration not given, 6 h; relative to: untreated cells).
The inhibition of `COc1ccc(-c2ccc3ncc4c(c3c2)n(-c2ccc(N3CCNCC3)c(C(F)(F)F)c2)c(=O)n4C)cn1.O=C(O)/C=C\C(=O)O` is reported as 94.7% (BT-16; cell viability, MTT; 10 µM, 72 h).
With `C=CC1=C(C)c2cc3[n-]c(cc4nc(cc5[n-]c(cc1n2)c(C)c5C=C)C(C)=C4CCC(=O)O)c(CCC(=O)O)c3C.[Zn+2]` the fold change was 1.67 (SH-SY5Y; RNA-seq, measured: FHL2 mRNA; 5 µM, 5 h; relative to: untreated cells).
`Cn1cc(Nc2nccc(-c3ccc4c(c3)CN(C3COC3)CC[C@H]4NC(=O)c3cn(C(C)(C)C)nn3)n2)cn1` — result for “pathway activation z-score”: 0.688 (mouse splenic B cells; measured: 3-phosphoinositide degradation; 30 mg/kg, IgD-activated in vivo; relative to: vehicle, direction not given).
Under “cell cycle distribution”, `CC(C)(c1ccc(O)cc1)c1ccc(O)cc1` is recorded as “no effect” (HepG2 spheroids; flow cytometry; concentration not given, 24 h).
`Nc1ncnc2c1ncn2[C@@H]1O[C@H](CO)[C@@H](O)[C@H]1O`: “log2 fold change” 9.6 and 9.5 and 8 (activated human T cells; measured: orotate; 50 µM; relative to: DMSO).
`Cc1nc(NC(=O)N2CCC[C@H]2C(N)=O)sc1-c1ccnc(C(C)(C)C(F)(F)F)c1` — result for “Hill coefficient GR curve”: 0.742 (BFTC-909; cell growth, CellTiter-Glo; 120 h).
For `C=CCn1c(=O)c2cnc(Nc3ccc(N4CCN(C)CC4)cc3)nc2n1-c1ccc2c(n1)[C@@](O)(CC)CC2`, the pHH3-negative cells was 93.7% (Kuramochi; flow cytometry; concentration not given).
`CSc1cc(Oc2ccnc3[nH]c(=O)cnc23)ccc1NC(=O)Nc1cc(C(C)(C)C)nn1-c1ccccc1` — result for “phospho-Met/total Met ratio”: 0.68 (patient-derived cell line clone B; RPPA; 1 µM, 4 h; relative to: DMSO).
With `O=C(/C=C/C=C/C=C/C1CCCCC1)NC1=C[C@@](O)(/C=C/C=C/C=C/C(=O)NC2=C(O)CCC2=O)[C@@H]2O[C@@H]2C1=O` the GI50 was 9720 nM (SUM185PE; cell growth, CellTiter-Glo; 78 h).
`CCn1cc(-c2cc(Cn3ccoc3=N)cc3c2CCN([C@@H](C)c2cc(OC)ccn2)C3=O)c(C(F)(F)F)n1` has an EC50 of 140 nM (SNU668; cell growth, inhibitor; 120 h).
With `COc1ccc2cc1Oc1ccc(cc1)C[C@H]1c3cc(c(OC)cc3CCN1C)Oc1c(O)c(OC)cc3c1[C@H](C2)N(C)CC3` the inhibition was 82.3% (BT-16; cell viability, MTT; 10 µM, 72 h).
For `CC(=O)O[C@@]12CO[C@@H]1C[C@H](O)[C@@]1(C)C(=O)[C@H](O)C3=C(C)[C@@H](OC(=O)[C@H](O)[C@@H](NC(=O)OC(C)(C)C)c4ccccc4)C[C@@](O)([C@@H](OC(=O)c4ccccc4)[C@H]21)C3(C)C`, “inhibition of cell growth” read greater than 65% (compound-sensitive VCaP-AI; trypan blue exclusion; 0.002 µM, 72 h).
For `c1cc(CN2CCCNCCNCCCNCC2)ccc1CN1CCCNCCNCCCNCC1`, activity read “inactive” (HepG2-C8; ARE reporter gene; concentration not given, 24 h).
`COc1cnc2cccc(N3CCc4c(cc(Cn5ccnc5C)cc4-c4cn(C)nc4C(F)(F)F)C3=O)c2c1` gave an EC50 of 21600 nM (NCI-H441; cell growth, inhibitor; 120 h).
For `O=C(/C=C/c1ccc(CN(CCO)CCc2c[nH]c3ccccc23)cc1)NO`, the inhibition was 95.1% (BT-16; cell viability, MTT; 10 µM, 72 h).
`COc1cc(-c2nnc3n2CCC3)ccc1Nc1ncc2cc(C)nc(NCC(C)(C)C)c2n1` has a GI50 of 380 nM (CAL-51; cell growth; 72 h).
With `COC(=O)N[C@@H](C)CNc1nccc(-c2cn(C(C)C)nc2-c2cc(Cl)cc(NS(C)(=O)=O)c2F)n1` the IC75 was 37 nM (SK-MEL-239 (BRAF V600E); ERK phosphorylation, Western blot; 1 h).
For `CC(=O)[C@]1(O)Cc2c(O)c3c(c(O)c2[C@@H](O[C@H]2C[C@H](N)[C@H](O)[C@H](C)O2)C1)C(=O)c1ccccc1C3=O`, the inhibition was 89.3% (BT-16; cell viability, MTT; 10 µM, 72 h).

Excerpt of the above:
`Cn1cc(Nc2nccc(-c3ccc4c(c3)CN(C3COC3)CC[C@H]4NC(=O)c3cn(C(C)(C)C)nn3)n2)cn1` — result for “pathway activation z-score”: 0.688 (mouse splenic B cells; measured: 3-phosphoinositide degradation; 30 mg/kg, IgD-activated in vivo; relative to: vehicle, direction not given).
